Results pooled from the literature.
Lines come from different studies, so protocols differ. ± marks the error that the study gave.

CCN(CC)c1ccc2c(c1)O[B-]1(c3ccccc3C)OC(=O)C(c3ccccc3)=N[N+]1=C2 (stereo not shown) — fluorescence emission maximum (toluene): 507 nm
CC1(C)C(=CC=C2CCCC(C=CC3=[N+](CCC[N+](C)(C)C)c4ccc(S(=O)(=O)O)cc4C3(C)C)=C2SCCOCCOCCC(=O)O)N(CCC[N+](C)(C)C)c2ccc(S(=O)(=O)O)cc21 — fluorescence quantum yield (DMSO): 15.4%
CCCCN1C(=O)c2cccc3c(NCCCN4CCOCC4)ccc(c23)C1=O — fluorescence lifetime (toluene): 8.1 ns
CN1CCN(c2ccc3[nH]c(-c4ccc5[nH]c(-c6ccc(OCCCCNC(=O)c7cccc8c7C(=O)OC87c8ccc(N(C)C)cc8C(C)(C)c8cc(N(C)C)ccc87)cc6)nc5c4)nc3c2)CC1 — fluorescence quantum yield (PBS; 1 µM, 2 h, room temperature, together with: 20 µM hairpin DNA): 0.39 ± 0.03
C=Cc1ccc([B-]23OC(=O)C(c4ccccc4)=N[N+]2=Cc2ccc(N(CC)CC)cc2O3)cc1 (stereo not shown) — fluorescence quantum yield (toluene): 0.62
O=c1cc(/C=C/c2ccc(N3CCCC3)cc2)oc(/C=C/c2ccc(N3CCCC3)cc2)c1 — fluorescence bathochromic shift (fluorescence; nanoparticles in aqueous acetonitrile; baseline: acetonitrile solution): 1190 cm⁻¹
CN1CCN(c2ccc3[nH]c(-c4ccc5[nH]c(-c6ccc(OCCCCNC(=O)c7cccc8c7C(=O)OC87c8ccc(N(C)C)cc8[Si](C)(C)c8cc(N(C)C)ccc87)cc6)nc5c4)nc3c2)CC1 — fluorescence quantum yield (PBS): 0.01 ± 0.03
CCC1=[N+]2N=C(c3ccccc3)C(=O)O[B-]2(c2ccccc2)Oc2cc(OC)ccc21 (stereo not shown) — fluorescence emission maximum (toluene): 500 nm
O=c1cc(/C=C/c2ccc(N(c3ccccc3)c3ccccc3)cc2)oc(/C=C/c2ccc(N(c3ccccc3)c3ccccc3)cc2)c1 — fluorescence quantum yield (acetonitrile; 10 µM, 298 K; baseline: 9,10-diphenylanthracene in toluene): 0.018
CCCCN1C(=O)c2cccc3c(NCCCCCCCCCCN4CCOCC4)ccc(c23)C1=O — fluorescence quantum yield (ethyl acetate): 1

Repeated from above:
C=Cc1ccc([B-]23OC(=O)C(c4ccccc4)=N[N+]2=Cc2ccc(N(CC)CC)cc2O3)cc1 (stereo not shown) — fluorescence quantum yield (toluene): 0.62
